Experimental data gathered from unrelated publications.
Protocols differ between the studies behind these lines.
Cell line: ACHN

With `CN(C)CCN1CCN(c2ccc3nc(-c4ccc5nc(-c6ccc(C(F)(F)F)cc6)[nH]c5c4)[nH]c3c2)CC1` the growth percent was 79.3% (SRB; 10 µM, 48 h).
The IC50 of `Cn1ncc(-c2ccc3c(=O)[nH]nc(CN)c3c2)c1-c1c(F)c(Cl)cc(OC2CC2)c1C#N` is reported as 370 nM (cell viability, inhibitor, CellTiter-Glo; 120 h, baseline-subtracted).
The TGI of `C1=[N+]2CCCC[N+]3=Cc4ccc5[n]4[Au-]23[n]2c1ccc2-c1nc2ccccc2nc1-5.F[P-](F)(F)(F)(F)F` is reported as 4 -log M (NCI60 five-dose screen).
With `CCCC(CCC)C(=O)OCc1cn(-c2cc3ccccc3oc2=O)nn1` the growth percentage was 96.1% (NCI60 single-dose screen; 10 µM).
`Cc1ccc([N+](=O)[O-])cc1S(=O)(=O)N(C)/N=C/c1cnc2ccc(Br)cn12` has an IC50 of 92 nM (MTS; NCI60 panel).
For `O=C(Nc1nnc2c1c(-c1ccc(Cl)cc1)nc1sc(=Cc3ccco3)c(=O)n12)c1ccccc1` (mixture of isomers), the cell growth was 40.5% (SRB; 10 µM, NCI60 single-dose screen; baseline: untreated).
`CC(C)c1ccc(N(C)c2ccc3c(c2)OCC[C@H]3CNc2cnccc2C(=O)O)cc1` has an IC50 of 34.7 nM (cell growth or viability, ATP luminescence; 7 days).
For `CNS(=O)(=O)Nc1nccc(Cc2c(C)c3ccc(Oc4ncccc4F)cc3oc2=O)c1F`, the IC50 was over 1000 nM (cell viability; 7 days).
`CCN(C(=O)c1cc(F)ccc1Oc1nncnc1N1CCC2(C1)CN([C@H](CCCN(C)CCOC)C(C)C)C2)C(C)C` has a GI50 of over 10000 nM (cell growth or viability; 7 days).

Excerpt of the above:
For `O=C(Nc1nnc2c1c(-c1ccc(Cl)cc1)nc1sc(=Cc3ccco3)c(=O)n12)c1ccccc1` (mixture of isomers), the cell growth was 40.5% (SRB; 10 µM, NCI60 single-dose screen; baseline: untreated).
